Published values pooled from the literature.
Lines come from different studies, so protocols differ. ± gives the spread as reported.

The IC50 of O=C1CCC(N2C(=O)c3cccc4c(Cc5cnn(C6CCNCC6)c5)ccc2c34)C(=O)N1 (stereo not shown) is reported as over 10 µM (human PBMC; cytotoxicity).
The IC50 of COC(=O)Nc1nc2ccc(C(=O)c3cccs3)cc2[nH]1 is reported as under 5 µM (HEK293T; reporter gene, firefly luciferase; 24 h, together with: Marburg VP24).
`ITGGIAIAMACLVGL` gave a responding donors of 17% (human CD4 T cells; AIM; peptide).
CCOP(=O)(OCC)Oc1ccc([N+](=O)[O-])cc1 gave an inhibition of 60 to 80% (THP-1 macrophages; 2-AG and PG-G hydrolysis; concentration not given, 1 h, together with: 2-AG or PG-G 10 µM).
The AC50 of CN1CCCC2(C1)CN(Cc1cccnc1)c1ccc(C(=O)NCC3CCCCC3)cc12 (stereo not shown) is reported as 25.1 µM (SARS-CoV-2; cytopathic effect, cell-based CPE; USA_WA1/2020).
For CC[C@@]1(O)C(=O)OCc2c1cc1n(c2=O)Cc2c-1nc1cc(F)c(C)c3c1c2[C@@H](NC(=O)CO)CC3, the IC50 was 0.00124 µM (NCI-H929; cell proliferation; 72 h).
Nc1ncnc2c([C@@H]3N[C@H](CO)[C@@H](O)[C@H]3O)c[nH]c12 has an inhibition of 99.7% (Zaire ebolavirus; viral replication; HeLa, Kikwit; 400 µM).
Nc1ncnc2c1ncn2[C@@H]1O[C@@H]2COP(=O)(O)O[C@H]3[C@@H](O)[C@H](n4cnc5c(=O)[nH]cnc54)O[C@@H]3COP(=O)(O)O[C@H]2[C@H]1O — result for “pathway fold enrichment”: 3.33 (HFF-1; RNA sequencing, item: Class A/1 receptors; upregulated pathway; baseline: Zika virus alone).
For CCc1c(C(=O)C(N)=O)c2c(OCC(=O)O)cccc2n1Cc1ccccc1, the survival was 100% (PB population, mouse; intravenous, 120 µg/mouse, 24 h, given 0 min after venom, together with: Daboia russelii venom 2.5 x LD50 i.p.).
For Nc1cccc2c1CN(C1CCC(=O)NC1=O)C2=O (stereo not shown), the IC50 was over 10 µM (human PBMC; cytotoxicity).
The cell-bound radioactivity of CC(C)C[C@H](NC(=O)[C@H](CC(=O)O)NC(=O)CNC(=O)[C@H](CCCNC(=N)N)NC(=O)[C@H](CC(C)C)NC(=O)[C@H](CC(N)=O)NC(=O)[C@@H]1CCCN1C(=O)[C@@H](NC(=O)[C@H](C)NC(=O)[C@H](CC(N)=O)NC(=O)CCOCCOCCOCCOCCOCCOCCOCCOCCOCCOCCOCCOCCOCCOCCOCCOCCOCCOCCOCCOCCOCCOCCOCCOCCOCCOCCOCCOCCNC(=O)CCOCCOCCOCCOCCOCCOCCOCCOCCOCCOCCOCCOCCOCCOCCOCCOCCOCCOCCOCCOCCOCCOCCOCCOCCOCCOCCOCCOCCNC(=O)c1ccc(F)cc1)C(C)C)C(=O)N[C@@H](CCC(N)=O)C(=O)N[C@H](C(=O)N[C@@H](CC(C)C)C(=O)N[C@@H](C)C(=O)N[C@@H](CCC(N)=O)C(=O)N[C@@H](CCCCN)C(=O)N[C@H](C(=O)N[C@@H](C)C(=O)N[C@@H](CCCNC(=N)N)C(=O)N[C@H](C(N)=O)[C@@H](C)O)C(C)C)C(C)C [fluorine-18 labelled] is reported as 25.8 ± 0.6% (BxPC-3; concentration not given, 1 h, pH 7.2, serum-free medium).
For `LPDPSKPSKRSFIED`, the responding donors was 8% (human CD4 T cells; AIM; peptide).
CN(C)CC[C@H](CSc1ccccc1)Nc1ccc(S(=O)(=O)NC(=O)c2ccc(N3CCN(Cc4ccccc4-c4ccc(Cl)cc4)CC3)cc2)cc1[N+](=O)[O-] — result for anti-apoptotic effect: “no effect” (HMEC; 5 µM, pre-treatment, together with: staurosporine).
For CN(C)CCCN1c2ccccc2Sc2ccc(Cl)cc21, the IC50 was 4.9 µM (A2780cis, cisplatin-resistant; cell viability, neutral red uptake; together with: UVA 5 J/cm2).
CC[C@H](C)[C@@H]([C@@H](CC(=O)N1CCC[C@H]1[C@H](OC)[C@@H](C)C(=O)N[C@H](C)[C@@H](O)c1ccccc1)OC)N(C)C(=O)[C@@H](NC(=O)[C@@H](NC)C(C)C)C(C)C has an IC50 of 0.000565 µM (NCI-H929; cell proliferation; 72 h).
CC(C)C[C@H](NC(=O)[C@H](CC(=O)O)NC(=O)CNC(=O)[C@H](CCCNC(=N)N)NC(=O)[C@H](CC(C)C)NC(=O)[C@H](CC(N)=O)NC(=O)[C@@H]1CCCN1C(=O)[C@@H](NC(=O)[C@H](C)NC(=O)[C@H](CC(N)=O)NC(=O)c1ccc(F)cc1)C(C)C)C(=O)N[C@@H](CCC(N)=O)C(=O)N[C@H](C(=O)N[C@@H](CC(C)C)C(=O)N[C@@H](C)C(=O)N[C@@H](CCC(N)=O)C(=O)N[C@@H](CCCCN)C(=O)N[C@H](C(=O)N[C@@H](C)C(=O)N[C@@H](CCCNC(=N)N)C(=O)N[C@H](C(N)=O)[C@@H](C)O)C(C)C)C(C)C [fluorine-18 labelled] gave a cell-bound radioactivity of 5.3 ± 0.8% (DX3puroβ6; concentration not given, 1 h, pH 7.2, serum-free medium).
The IC50 of CCc1c2c(nc3ccc(O)cc13)-c1cc3c(c(=O)n1C2)COC(=O)[C@]3(O)CC is reported as 0.0617 µM (PBMC; cytotoxicity).
With `EIYQAGSTPCNGVEG` the responding donors was 8% (human CD4 T cells; AIM; peptide).
O=P(Oc1ccccc1)(Oc1ccccc1)Oc1ccccc1 gave an ID50 of 143 µM (ES-D3; cardiomyocyte differentiation, embryonic stem cell test; day 10, exposure from day 3; 50% inhibition of beating).
C[C@@H]1O[C@@H](O[C@H]2CC[C@]3(C=O)[C@H]4CC[C@]5(C)[C@@H](C6=CC(=O)OC6)CC[C@]5(O)[C@@H]4CC[C@]3(O)C2)[C@H](O)[C@H](O)[C@H]1O: “MyBP-C level change” 13.3 SD (human iPSC cardiomyocytes; plate-normalised; concentration not given, hit retest; baseline: vehicle controls, SDs below control).
For `LYENQKLIANQFNSA`, the responding donors was 7% (human CD4 T cells; AIM; peptide).
Cc1ccccc1CN1C(=O)c2ccccc2Sc2ccc(C(=O)NCCCN3CCOCC3)cc21 gave a maximum response of 65.6% (SARS-CoV-2; cytopathic effect; USA_WA1/2020; round 1, 5-point).
Cn1cnc(Cn2c(=O)[nH]/c(=N\c3cc4cn(C)nc4cc3Cl)n(Cc3cc(F)c(F)cc3F)c2=O)n1 has a renal clearance of 0.677 mL/min (human, moderate renal impairment, plasma; oral, 375 mg single dose).
For `QEPKLGSLVVRCSFY`, the responding donors was 9% (human CD4 T cells; AIM; peptide).
For CC[C@H](C)[C@H](NC(=O)[C@H](CC(C)C)NC(=O)[C@H](Cc1c[nH]c2ccccc12)NC(=O)[C@H](CCC(N)=O)NC(=O)[C@@H](NC(=O)[C@H](Cc1ccccc1)NC(=O)[C@H](C)NC(=O)[C@H](CCCCNC(=O)COCCOCCNC(=O)COCCOCCNC(=O)CC[C@H](NC(=O)CCCCCCCCCCCCCCCCCCC(=O)O)C(=O)O)NC(=O)[C@H](CCC(N)=O)NC(=O)[C@H](C)NC(=O)[C@@H](NC(=O)[C@H](CCCCN)NC(=O)[C@H](CC(=O)O)NC(=O)[C@H](CC(C)C)NC(=O)C(C)(C)NC(=O)[C@@H](NC(=O)[C@H](CO)NC(=O)[C@H](Cc1ccc(O)cc1)NC(=O)[C@H](CC(=O)O)NC(=O)[C@H](CO)NC(=O)[C@@H](NC(=O)[C@H](Cc1ccccc1)NC(=O)[C@@H](NC(=O)CNC(=O)[C@H](CCC(=O)O)NC(=O)C(C)(C)NC(=O)[C@@H](N)Cc1ccc(O)cc1)[C@@H](C)O)[C@@H](C)O)[C@@H](C)CC)[C@@H](C)CC)C(C)C)C(=O)N[C@@H](C)C(=O)NCC(=O)NCC(=O)N1CCC[C@H]1C(=O)N[C@@H](CO)C(=O)N[C@@H](CO)C(=O)NCC(=O)N[C@@H](C)C(=O)N1CCC[C@H]1C(=O)N1CCC[C@H]1C(=O)N1CCC[C@H]1C(=O)N[C@@H](CO)C(N)=O, “systolic blood pressure change” read 2.32 mmHg (healthy subjects; 1.5 mg, day 29, multiple ascending dose, LS mean; baseline: baseline).
For `VYYPDKVFRSSVLHS`, the responding donors was 15% (human CD4 T cells; AIM; peptide).
CNC(=O)[C@@H](NC(=O)[C@H](CC(C)C)[C@H](O)C(=O)NO)C(C)(C)C: “remaining fibrinogen Aα chain” 0.205 (human fibrinogen; SDS-PAGE; Daboia russelii; concentration not given, unit not given, together with: WB venom; baseline: untreated fibrinogen).
The responding donors of `RAMPNMLRIMASLVL` is reported as 7% (human CD4 T cells; AIM; peptide).
For CCOC(=O)CC(SP(=S)(OC)OC)C(=O)OCC (stereo not shown), the ID50 was 73.2 µM (ES-D3; cardiomyocyte differentiation, embryonic stem cell test; day 10, exposure from day 3; 50% inhibition of beating).
With `LQPELDSFKEELDKY` the responding donors was 7% (human CD4 T cells; AIM; peptide).
With COc1cc2cc(c1Cl)N(C)C(=O)C[C@H](OC(=O)[C@H](C)N(C)C(=O)CCS)[C@]1(C)O[C@H]1[C@H](C)[C@@H]1C[C@@](O)(NC(=O)O1)[C@H](OC)/C=C/C=C(\C)C2 the IC50 was 0.0422 µM (PBMC; cytotoxicity).
